# Results pooled from the literature.
# Lines come from different studies, so protocols differ. ± marks the error that the study gave.
Substance,tested on,test,system,setting,how to read,quantity,result
COc1ccc(Nc2nc(Nc3ccc(OC)cc3OC)nc(N3CCOCC3)n2)c(OC)c1,SARS-CoV-2,cytopathic effect,USA_WA1/2020,retest 8-point,,maximum response,86.4%
CN1CCCN(C(c2ccccc2)c2ccc(Cl)cc2)CC1 (stereo not drawn),HeLa,Ebola VLP entry,,,,IC50,10.9 µM
C[C@@H]1Cc2c(Cl)cc(C(=O)N[C@H](Cc3ccccc3)C(=O)O)c(O)c2C(=O)O1,SL-29 chicken embryo fibroblasts,"metabolic activity, MTT",,"concentration not given, 48 h",reference: compound over ochratoxin A,relative concentration equal effect,27 fold
COc1cc(Nc2c(C#N)cnc3cc(OCCCN4CCN(C)CC4)c(OC)cc23)c(Cl)cc1Cl,Huh-7,pseudovirus entry,MERS-CoV spike pseudovirus,,,EC90,2.44 ± 1.38 µM
diphtheria toxin A chain,HeLa,"cell proliferation, CellTiter-Glo",,72 h,,EC50,4 µM
CC[C@H](OC(C)=O)C(C[C@H](C)NC)(c1ccccc1)c1ccccc1,HeLa,Ebola VLP entry,,,,IC50,7.96 µM
OC(COc1cccc(OCC(O)CN2CCCCC2)c1)CN1CCCCC1 (stereo not drawn),HEK293T,pseudovirus entry,SARS-CoV spike pseudotyped HIV-1,72 h,,EC50,3 µM
CNC(=O)[C@@H](NC(=O)[C@H](CC(C)C)[C@H](O)C(=O)NO)C(C)(C)C,C2C12,,,"1 µM, added: MH venom",reference: venom alone,viability difference,-0.671%
CC[C@H](C)[C@H](NC(=O)[C@H](CC(C)C)NC(=O)[C@H](Cc1c[nH]c2ccccc12)NC(=O)[C@H](CCC(N)=O)NC(=O)[C@@H](NC(=O)[C@H](Cc1ccccc1)NC(=O)[C@H](C)NC(=O)[C@H](CCCCNC(=O)COCCOCCNC(=O)COCCOCCNC(=O)CC[C@H](NC(=O)CCCCCCCCCCCCCCCCCCC(=O)O)C(=O)O)NC(=O)[C@H](CCC(N)=O)NC(=O)[C@H](C)NC(=O)[C@@H](NC(=O)[C@H](CCCCN)NC(=O)[C@H](CC(=O)O)NC(=O)[C@H](CC(C)C)NC(=O)C(C)(C)NC(=O)[C@@H](NC(=O)[C@H](CO)NC(=O)[C@H](Cc1ccc(O)cc1)NC(=O)[C@H](CC(=O)O)NC(=O)[C@H](CO)NC(=O)[C@@H](NC(=O)[C@H](Cc1ccccc1)NC(=O)[C@@H](NC(=O)CNC(=O)[C@H](CCC(=O)O)NC(=O)C(C)(C)NC(=O)[C@@H](N)Cc1ccc(O)cc1)[C@@H](C)O)[C@@H](C)O)[C@@H](C)CC)[C@@H](C)CC)C(C)C)C(=O)N[C@@H](C)C(=O)NCC(=O)NCC(=O)N1CCC[C@H]1C(=O)N[C@@H](CO)C(=O)N[C@@H](CO)C(=O)NCC(=O)N[C@@H](C)C(=O)N1CCC[C@H]1C(=O)N1CCC[C@H]1C(=O)N1CCC[C@H]1C(=O)N[C@@H](CO)C(N)=O,,,"healthy human subjects, serum","5/5/8/10 mg escalating, baseline",,total ALT,32 ± 13.6 U/L
Cc1oc(-c2cccc(Cl)c2)nc1CN1CCCC(C(=O)NCCc2ccc(Cl)cc2)C1 (stereo not drawn),SARS-CoV-2,cytopathic effect,USA_WA1/2020,"round 1, 5-point",,maximum response,43.8%
Nc1ncnc2c([C@@H]3N[C@H](CO)[C@@H](O)[C@H]3O)c[nH]c12,Zaire ebolavirus,viral replication,"HeLa, Kikwit",0.8 µM,,inhibition,0%
CCc1c(C(=O)C(N)=O)c2c(OCC(=O)O)cccc2n1Cc1ccccc1,C2C12,,,"1 µM, added: PB venom",reference: venom alone,viability difference,9.27%
COc1ccc(CCNC(=O)c2sc3nc(-c4cccs4)ccc3c2N)cc1OC,ScN2a-cl3,PrPSc level,,,,EC50,> 10 µM
Fc1ccc(C(OCCN2CCN(CCCc3ccccc3)CC2)c2ccc(F)cc2)cc1,HeLa,Ebola VLP entry,,,,maximal inhibition,100%
CN(C)CCOc1ccc(/C(=C(/CCCl)c2ccccc2)c2ccccc2)cc1,Huh-7,pseudovirus entry,MERS-CoV spike pseudovirus,,,EC90,> 20 µM
Cn1cnc(Cn2c(=O)[nH]/c(=N\c3cc4cn(C)nc4cc3Cl)n(Cc3cc(F)c(F)cc3F)c2=O)n1,,,"human, severe renal impairment, plasma","oral, 375 mg single dose",,terminal half-life,70.7 h
C[C@@H](C1=C(CCN(C)C)Cc2ccccc21)c1ccccn1,HeLa,Ebola VLP entry,,,,IC50,15.3 µM
CC(CN(C)C)CN1c2ccccc2Sc2ccccc21 (stereo not drawn),Huh-7,pseudovirus entry,MERS-CoV spike pseudovirus,,,EC90,3.78 ± 1.54 µM

# Some of these lines once more:
Substance,tested on,test,system,setting,how to read,quantity,result
C[C@@H](C1=C(CCN(C)C)Cc2ccccc21)c1ccccn1,HeLa,Ebola VLP entry,,,,IC50,15.3 µM
CC(CN(C)C)CN1c2ccccc2Sc2ccccc21 (stereo not drawn),Huh-7,pseudovirus entry,MERS-CoV spike pseudovirus,,,EC90,3.78 ± 1.54 µM
